Experimental data gathered from unrelated publications.
Protocols differ between the studies behind these lines. “And” joins repeats or separate records; there may be more than shown. Numbers after ± are the reported error.

SMILES	cell line	test	setting	scale	quantity	result
CC(C)C[C@@H](NC(=O)[C@H](C)NC(=O)CNC(=O)[C@@H](NC=O)C(C)C)C(=O)N[C@@H](C)C(=O)N[C@@H](C(=O)N[C@H](C(=O)N[C@@H](C(=O)N[C@@H](Cc1c[nH]c2ccccc12)C(=O)N[C@H](CC(C)C)C(=O)N[C@@H](Cc1c[nH]c2ccccc12)C(=O)N[C@H](CC(C)C)C(=O)N[C@@H](Cc1c[nH]c2ccccc12)C(=O)N[C@H](CC(C)C)C(=O)N[C@@H](Cc1c[nH]c2ccccc12)C(=O)NCCO)C(C)C)C(C)C)C(C)C	MCF7	flow cytometry	100 nM, 48 h	–	cells in S phase	17 ± 0.81%
C=CCc1c(O)cc2c(c1O)C(=O)CC(c1ccc(O)cc1)O2 (stereo not shown)	HeLa	cell growth or viability, MTT	25 µM, 48 h	–	inhibition	4.73%
C[C@@H]1CC[C@@H]([C@](O)(COCc2ccccc2)Cn2cnc3ccccc32)[C@H](OCc2ccccc2)C1	A2780	cell growth or viability, MTT	30 µM, 72 h	–	inhibition	98.8%
O=S(=O)(N[C@H]1CCO[C@@H](C2c3ccc(F)cc3CCc3cc(F)ccc32)C1)c1ccc(OC(F)(F)F)cc1	D341	immunoblot, measured: CIP2A	concentration not given	–	protein level	decreased
Cc1cc2oc(=O)cc(Cn3ccnc3)c2cc1O	COS-7 (untransfected)	–	500 µM, unit not given	baseline: 3 µM ionomycin	calcium mobilisation signal	6.76 ± 1.7
Cc1ncsc1-c1ccc(C(C)NC(=O)C2CC(O)CN2C(=O)C(NC(=O)CCCCCCCCCCN2CCCC(Nc3ncc(Cl)c(Nc4ccccc4S(=O)(=O)C(C)C)n3)C2)C(C)(C)C)cc1 (stereo not shown)	22Rv1	RNA-seq, measured: ZNF70 mRNA	concentration not given	baseline: DMSO	log2 fold change	-1.68
Cn1ncc2cc(-c3cncc(Cl)c3N3CCC4(CCNC4=O)CC3)ccc21	LS174T	gene expression, microarray, measured: PLD1 mRNA	concentration not given, 24 h	baseline: untreated cells	log2 fold change	-2.32
COc1ccc2c(c1)c(CC(=O)[Se]CC(=O)Nc1cccc(C(F)(F)F)c1)c(C)n2C(=O)c1ccc(Cl)cc1	NCI60 leukemia subpanel	cell growth	10 µM, 48 h, one-dose	–	mean growth percent	-70.3%
N#C[C@@H]1CCCN1C(=O)CNC(=O)c1ccnc2ccc(OCCCN3CCN(C(=O)CCc4ccc5c(c4)CN4CCN(Cc6cc(CCC(=O)O)ccc6O)CC(=O)[O][Al-]([18F])([O]C(=O)C4)[O]5)CC3)cc12 (stereo partly shown)	HT1080 cells expressing human FAP	–	90 min, 37 °C	–	internalized fraction	75.6 ± 1.1%
CCC(=CCc1c(O)cc2c(c1O)C(=O)CC(c1cccc(O)c1)O2)CC (stereo not shown)	HeLa	cell growth or viability, MTT	50 µM, 48 h	–	inhibition	83%
O=C(Nc1nnc2c1c(-c1ccc(Cl)cc1)nc1sc(=Cc3ccco3)c(=O)n12)c1ccccc1 (mixture of isomers)	SK-MEL-2	SRB	10 µM, NCI60 single-dose screen	baseline: untreated	cell growth	68.9%
COc1ccccc1-c1ccncc1C(=O)Nc1nnc(OCc2ccc(Cl)cc2)s1	Brca1 Δ11/Δ11 MEFs sgGFP	–	1.25 µM	–	colony count	45 and 62 and 66
CNS(=O)(=O)Nc1nccc(Cc2c(C)c3ccc(Oc4ncccc4F)cc3oc2=O)c1F	EFO-27	cell viability	7 days	–	IC50	> 1 µM
COc1cc(N2CCN(C(=O)CN)CC2)ccc1Nc1ncc(Cl)c(Nc2ccccc2P(C)(C)=O)n1	NCI-H3122	CCK-8	5 nM, 48 h	–	viability	95%
CC12CCCC(NS(=O)(=O)c3ccc(O)c(N)c3)(C1)C1CC(C)(C)C1CC2 (stereo not shown)	HT-29	cell growth or viability, CCK-8	50 µM	–	inhibition	93.5%
CC[C@H](C)[C@H](NC(=O)[C@H](CCC(=O)O)NC(=O)[C@H](Cc1ccc(I)cc1)NC(C)=O)C(=O)N[C@@H](CC(=O)O)C(=O)COC(=O)c1c(C)cccc1C	THP-1 cells, LPS-primed	pyroptosis, LDH release	25 µM, LPS 1 µg/mL, 4 h, with: nigericin 5 µM, 2 h	–	cell lysis	60.3% and 76%
CN1CCCNC(=O)c2cccc(c2)C(=O)NCCCN(C)CCCNc2cccc3c2C(=O)c2cccc(c2C3=O)NCCC1	SAS	RNA-Seq, measured: ATRAID mRNA	1 µM, 6 h	baseline: untreated cells	log2 fold change	0.373
CC(=O)N1CCC[C@H]1C(=O)N[C@H](C(=O)NCC(=O)N[C@@H](CC(=O)O)C(=O)COC(=O)c1c(C)cccc1C)C(C)(C)C	THP-1 cells, LPS-primed	pyroptosis, LDH release	25 µM, LPS 1 µg/mL, 4 h, with: nigericin 5 µM, 2 h	–	cell lysis	26.1% and 51.7%
CCCS(=O)(=O)NC12CCCC(C)(CCC3C1CC3(C)C)C2 (stereo not shown)	HT-29	cell growth or viability, CCK-8	10 µM	–	inhibition	< 50%

For quick reference, copied from above:
SMILES	cell line	test	setting	scale	quantity	result
Cn1ncc2cc(-c3cncc(Cl)c3N3CCC4(CCNC4=O)CC3)ccc21	LS174T	gene expression, microarray, measured: PLD1 mRNA	concentration not given, 24 h	baseline: untreated cells	log2 fold change	-2.32
CCC(=CCc1c(O)cc2c(c1O)C(=O)CC(c1cccc(O)c1)O2)CC (stereo not shown)	HeLa	cell growth or viability, MTT	50 µM, 48 h	–	inhibition	83%
O=S(=O)(N[C@H]1CCO[C@@H](C2c3ccc(F)cc3CCc3cc(F)ccc32)C1)c1ccc(OC(F)(F)F)cc1	D341	immunoblot, measured: CIP2A	concentration not given	–	protein level	decreased
